Assay results pooled from the literature.
Numbered parts are unrelated; each lists some results of a single study.

Series 1
Target: Prothrombin, mature alpha-thrombin (F2, Homo sapiens, UniProt P00734)
Method: aptamer microarray, sandwich
Molecule type: DNA with 2'F-ANA
Medium: in vitro
Tested at: 200 nM
Notes: whole 15-mer aptamer, many near background
Added: Cy3 exosite-II aptamer, 400 nM
Reading: higher = stronger binding
Oligonucleotide: GGTTGGTGTGGTTGG
| Modification | mean fluorescence intensity |
| --- | --- |
| 2'F-ANA at 1 2 4 6 7 10 11 13 14 15 | 49.9 a.u. |
| 2'F-ANA at 11 12 13 15 | 732 a.u. |
| 2'F-ANA at 3 6 7 8 10 13 14 15 | 360 a.u. |
| 2'F-ANA at 3 4 5 7 9 10 11 12 14 | 96.2 a.u. |
| 2'F-ANA at 4 6 9 10 11 12 14 | 62.9 a.u. |
| 2'F-ANA at 1 3 4 5 7 10 11 12 13 14 | 51.2 a.u. |
| 2'F-ANA at 1 7 8 9 10 12 14 | 49.3 a.u. |
| 2'F-ANA at 2 4 6 8 9 11 | 244 a.u. |
| 2'F-ANA at 2 4 5 6 7 8 10 11 12 13 14 15 | 50 a.u. |
| 2'F-ANA at 5 8 9 10 11 12 14 15 | 86.9 a.u. |
| 2'F-ANA at 3 7 8 9 10 11 12 13 15 | 552 a.u. |
| 2'F-ANA at 3 7 8 9 12 | 1570 a.u. |
| 2'F-ANA at 2 3 6 7 8 10 12 13 | 381 a.u. |
| 2'F-ANA at 1 3 8 12 15 | 692 a.u. |
| 2'F-ANA at 3 5 6 10 11 12 14 15 | 48.7 a.u. |
| 2'F-ANA at 2 3 4 6 10 11 12 14 | 174 a.u. |
| 2'F-ANA at 3 5 8 10 13 14 15 | 95 a.u. |

Series 2
Target: Sal-like protein 4, full length isoform A (SALL4, Homo sapiens, UniProt Q9UJQ4, residues 1-1053)
Sequence of UniProt Q9UJQ4 (whole entry, looked up): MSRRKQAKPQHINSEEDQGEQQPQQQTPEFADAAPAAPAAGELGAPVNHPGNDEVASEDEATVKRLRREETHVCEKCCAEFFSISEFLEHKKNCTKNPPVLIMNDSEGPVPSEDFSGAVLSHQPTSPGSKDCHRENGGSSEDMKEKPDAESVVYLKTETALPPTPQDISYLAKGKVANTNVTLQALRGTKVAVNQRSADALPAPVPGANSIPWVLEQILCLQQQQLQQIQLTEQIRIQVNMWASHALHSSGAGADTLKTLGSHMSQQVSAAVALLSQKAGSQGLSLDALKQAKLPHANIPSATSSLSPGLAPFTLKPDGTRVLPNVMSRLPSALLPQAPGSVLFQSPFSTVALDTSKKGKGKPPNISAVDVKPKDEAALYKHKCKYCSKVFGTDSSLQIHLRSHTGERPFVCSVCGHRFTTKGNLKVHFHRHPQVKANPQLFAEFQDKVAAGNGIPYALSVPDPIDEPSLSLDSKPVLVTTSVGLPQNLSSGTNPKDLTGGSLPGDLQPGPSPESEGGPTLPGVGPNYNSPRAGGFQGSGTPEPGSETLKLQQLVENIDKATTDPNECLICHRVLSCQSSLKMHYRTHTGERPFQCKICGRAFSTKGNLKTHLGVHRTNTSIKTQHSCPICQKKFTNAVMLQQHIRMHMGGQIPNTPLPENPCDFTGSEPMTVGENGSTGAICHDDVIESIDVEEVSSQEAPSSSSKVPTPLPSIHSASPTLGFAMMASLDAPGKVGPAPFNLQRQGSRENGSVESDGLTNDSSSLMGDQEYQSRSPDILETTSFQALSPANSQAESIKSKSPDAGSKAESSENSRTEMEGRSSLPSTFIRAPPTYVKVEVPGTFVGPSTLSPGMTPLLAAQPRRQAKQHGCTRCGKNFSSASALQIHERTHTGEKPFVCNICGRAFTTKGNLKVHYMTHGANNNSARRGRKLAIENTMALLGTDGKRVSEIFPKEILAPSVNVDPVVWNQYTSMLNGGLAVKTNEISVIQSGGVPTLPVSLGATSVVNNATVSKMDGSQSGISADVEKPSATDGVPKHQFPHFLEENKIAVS
Method: universal PBM
Molecule type: double-stranded DNA, one strand shown
Medium: in vitro
Tested at: 600 nM
Notes: 8-mer, flanks averaged, mean of replicates
Reading: higher = stronger binding
| Oligonucleotide | E-score |
| --- | --- |
| CCATACGA | 0.0963 |
| AATGCTGG | -0.0585 |
| CGATAGGC | 0.0684 |
| ACAACATG | 0.142 |
| ATGTTGCC | -0.0649 |
| ACACGTTG | -0.0978 |
| CGTGCATA | 0.171 |
| CGGTGAAA | 0.091 |
| ATTTTACA | 0.283 |
| TAGCCTAA | -0.00219 |
| TGGTGCAA | -0.0231 |
| CCCGCCTC | -0.304 |
| GAACGGCC | -0.223 |
| CAATCCCA | -0.0977 |
| GAGGCCGC | -0.382 |
| AAGGCACG | -0.226 |
| ATGAGTGA | 0.126 |
| CTCTAGCA | -0.0462 |
| AAATCGTT | 0.214 |
| ACTTTGTA | 0.146 |
| AGCAAGAG | -0.0887 |
| GAGGCGAC | -0.254 |
| CCTCGCGC | -0.253 |
| ACGAACCC | -0.273 |
| AGCTGCAT | -0.0397 |

Series 3
Target: RING finger protein unkempt homolog, zinc fingers 1-6, GST-SBP tag (UNK, Homo sapiens, UniProt Q9C0B0, residues 30-357)
Sequence of UniProt Q9C0B0 (30-357, looked up): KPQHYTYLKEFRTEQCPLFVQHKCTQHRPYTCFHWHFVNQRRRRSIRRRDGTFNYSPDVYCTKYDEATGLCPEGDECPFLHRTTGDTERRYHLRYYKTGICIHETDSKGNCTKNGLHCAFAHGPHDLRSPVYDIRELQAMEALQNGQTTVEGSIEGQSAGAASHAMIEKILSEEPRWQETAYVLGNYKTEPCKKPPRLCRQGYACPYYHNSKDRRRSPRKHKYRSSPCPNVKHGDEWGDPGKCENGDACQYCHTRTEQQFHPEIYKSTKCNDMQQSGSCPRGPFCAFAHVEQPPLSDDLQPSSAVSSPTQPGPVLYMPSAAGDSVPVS
Method: RNA Bind-n-Seq
Molecule type: RNA
Medium: in vitro
Tested at: not given
Notes: RNA with constant flanks, human and mouse sites, ends assumed
Baseline: input RNA pool
Reading: higher = stronger binding
| Oligonucleotide | bound/input enrichment [ratio] |
| --- | --- |
| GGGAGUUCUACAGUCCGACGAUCAUCUUAAAUGAGGAUAACUCUGUGGUCCUCGGCAUCUCAUCCCGAGAAGGGGAGGAGGUUAUGUUUAAAACUCCAGUGUCCAUCACUGAACACCCCAAAAUCAAUGAGUGGCUCACUCUGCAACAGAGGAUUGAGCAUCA | 0.265 |
| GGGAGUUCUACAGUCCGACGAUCGUGUAUAACAGAGUUGUUUGUUUCCUCUUUGAUUUUAAACAGAGAAAAUAAAAGGAGUAACUGCUCCUUUUUUCUUCCUUUUUUCAUUUCAAAGUUUCUACCAGUGUAUCAGUGACGGACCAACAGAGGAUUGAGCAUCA | 0.328 |
| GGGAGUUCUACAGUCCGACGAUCCAGUGUUUGAGCAACACACCUCCACUUACUGAAUAUUUCCUCAAUGAUAAGUACCAAGAAGAGCUGAAUUUUGACAAUCCCUUAGGAAUGAGAGGUGAAAUAGCUAAAUCAUACGCUGAACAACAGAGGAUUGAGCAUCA | 0.434 |
| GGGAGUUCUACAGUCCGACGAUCGGAGUAGAAGUCCAUCCUCCCCCCAACCUCCUGACCCAUUCAUAAAUGCUGAGAAUGUCUCUCAUGGGAACACUGUUAAUGACCCACACAGGAUAAGCUGAAUGCAAAGUUAUUUGCAGGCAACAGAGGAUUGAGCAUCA | 0.277 |
| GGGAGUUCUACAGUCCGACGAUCGUGCUCCCUCGGGAUCUCUUCCAAAAGCUUUUCCGACAGGACCUGCUCGUGGCAAGUUUGUUUAGAAAUUUUUUAUUGGCAGAAAGAAUCAUGAGGUCAUAUAACUGCACCCCAGUAAGCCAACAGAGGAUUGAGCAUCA | 0.551 |
| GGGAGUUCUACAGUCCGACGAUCCAUCGCAUGCCCAGGGACCACUGCCUGGCAUUAUCGCAUGCUGGGAUCAUCGGGGGAGGGUAGUGAAGCUCACCACUGUCCUUUGUUUUGGAGAUUUUUAUUUUUGCAUAAGUAGUCCAUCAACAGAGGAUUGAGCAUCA | 0.23 |
| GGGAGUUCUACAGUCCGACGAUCGCAAGAAUGCAGAGAGCUGGAAUUCCUUGUCCAACAGUUGUACUACUGAAGAAACACAUUUUAGUUAUGUCUUUUAUUGGCCAUGAUCAAGUUCCAGCCCCUAAAUUAAAAGAAGUAAAGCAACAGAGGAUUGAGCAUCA | 0.449 |
| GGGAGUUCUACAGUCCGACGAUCUUUCAGCAACUGGUCAAUUUUUCAGAAGGAGGACCAGGCUCUAAUUCUACUGGCAGUGAAGUAGCAUCGAUGUCCUCGCAGCUCCCAGAUACACCCAACAGCAUGGUAGCCAGUCCUAUUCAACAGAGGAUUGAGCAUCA | 0.197 |

Series 4
Target: Histone acetyltransferase KAT6A, winged helix 1, GST fusion (KAT6A, Homo sapiens, UniProt Q92794, residues 1-85)
Method: protein binding microarray
Molecule type: double-stranded DNA, one strand shown
Medium: in vitro
Tested at: not given
Notes: 8-mer, flanks averaged, mean of 2 arrays, mostly near background
Baseline: not given
Reading: higher = stronger binding
Target sequence (chain): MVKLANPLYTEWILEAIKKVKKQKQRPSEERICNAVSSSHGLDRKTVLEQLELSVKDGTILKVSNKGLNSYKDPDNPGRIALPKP
| Oligonucleotide | E-score |
| --- | --- |
| TAAAATTA | -0.023 |
| ACACGGCC | 0.337 |
| CCGGGAGG | 0.18 |
| ATTTGCCC | 0.0886 |
| CCTATTTC | -0.204 |
| ACGAAGTC | -0.203 |
| AATGTGTA | -0.168 |
| GGTTGTTA | 0.0589 |
| ACGTGGAG | -0.154 |
| ACCACAGC | -0.102 |
| GATTTCTA | -0.0134 |
| CCAGCTTC | -0.24 |
| GGGCCAAA | 0.0708 |
| CCGGCATC | 0.329 |
| ACCGTGCC | 0.176 |
| TAACACAA | -0.0442 |
| CACCTGCA | -0.298 |
| ACAATTCT | -0.155 |
| AAACGTCC | -0.106 |
